Measurements collected from several papers.
Protocols differ between the studies behind these lines. ± gives the spread as reported. ≈ marks a conversion by molar mass, not a printed value.
Organism: Mycobacterium tuberculosis

For `NC(=O)c1cncc(Cn2c(=S)[nH]c3ccc(Cl)cc3c2=O)c1`, the MIC90 was 0.67 µM (PptT conditional knockdown).
Under “intracellular bacterial survival”, `CCCCCCC#Cc1cncc(-c2nnc(SCc3cc([N+](=O)[O-])cc([N+](=O)[O-])c3)n2C)c1` is recorded as “decreased” (macrophages, murine, bone marrow-derived, Erdman; concentration not given).
For `Cc1cccc(NC(=O)c2sc3nc(-c4cccs4)cc(C(F)(F)F)c3c2N)c1C`, IC90 read “inactive” (H37Rv wild type; 120 h).
The MIC90 of `O=c1c2cc(Cl)ccc2[nH]c(=S)n1Cc1cncnc1` is reported as 0.32 µM (PptT conditional knockdown).
With `Cc1ccc(OCCc2ccc(C3CC3)cc2)c(C(N)=O)c1` the selectivity index was 85 (H37Rv-LP; baseline: HepG2 CC50 over Mtb IC90).
With `Cc1cccc(NC(=O)c2sc3nc(-c4cccs4)cc(C(F)(F)F)c3c2N)c1` the IC50 was > 100 µM (growth inhibition; H37Rv LepB under-expressing).
`CC(C)(O)c1ccc(OCCc2cccc(F)c2)c(C(N)=O)c1` gave a selectivity index of > 3 (H37Rv-LP; baseline: HepG2 CC50 over Mtb IC90).
The IC50 of `COc1ccc(-c2cc(C(F)(F)F)c3c(N)c(C(=O)NCc4cccc(C)c4C)sc3n2)cc1` is reported as 0.8 ± 0.1 µM (growth inhibition; H37Rv LepB under-expressing).
`Cc1ccc(NCC(=O)N[C@H]2CC[C@H](C)CC2)cc1`: activity “inactive” (H37Rv mc2 6206; concentration not given, 168 h).
For `COCCNC(=O)c1sc2nc(-c3ccc(OC)cc3)cc(C(F)(F)F)c2c1N`, the IC50 was > 100 µM (growth inhibition; H37Rv LepB under-expressing).
`CN1CCN(c2ccc(Nc3nccc(-c4ccc(Cl)cc4)n3)cc2C(F)(F)F)CC1` gave an MIC of 11.2 µg/mL (≈ 25 µM) (H37Rv auxotrophic strain).
With `CCC(C)(O)c1ccc(OCCc2cccc(F)c2)c(C(N)=O)c1` (stereo not drawn) the selectivity index was 2 (H37Rv-LP; baseline: HepG2 CC50 over Mtb IC90).
For `COc1ccc(-c2cc(C(F)(F)F)c3c(N)c(C(=O)N4CC(OC)C4)sc3n2)cc1`, IC90 read “inactive” (H37Rv wild type; 120 h).
`N#Cc1cc2c(=O)n(Cc3cccnc3)c(=S)[nH]c2cn1` has an MIC90 of 13.4 µM (PptT conditional knockdown).
`COc1ccc(-c2cc(C(F)(F)F)c3c(N)c(C(=O)Nc4ccc(C)c(C)c4)sc3n2)cc1` gave an IC50 of > 100 µM (growth inhibition; H37Rv LepB under-expressing).
For `Cc1c(-c2ccc(N3CCCCC3)cc2)[nH]c2ccccc2c1=O`, the IC90 was 3.11 ± 0.56 µM (bacterial growth, microplate alamarBlue; H37Rv; aerobic).
With `Cc1ccc(OCCc2cc(F)cc(F)c2)c(C(=O)N(C)C)c1` the IC90 was 49 ± 3 µM (growth; H37Rv-LP; 120 h).
`CO[C@H]1[C@H](O[C@H]([C@H]2O[C@@H](n3ccc(=O)[nH]c3=O)[C@H](O)[C@@H]2O)[C@H](NCCCNC(=O)[C@@H](NC(=O)[C@@H](NC(=O)N[C@H](C(=O)O)C(C)C)[C@@H]2CCN=C(N)N2)[C@@H](OC(=O)CCCCCCCCCCCCN(O)C(=N)N)C(C)C)C(=O)O)O[C@H](CN)[C@H]1O` gave an MIC90 of 0.08 ± 0.004 µg/mL (microplate alamar blue; H37Rv).
`O=c1c2cc(Cl)c(CF)cc2[nH]c(=S)n1Cc1cccnc1` gave an MIC90 of 1.75 µM (PptT conditional knockdown).
`Cc1nc(OCCc2cc(F)cc(F)c2)c(C(=O)NC2CCCC2)s1` has an IC90 of 46 ± 35 µM (growth; H37Rv-LP; 120 h).
For `CC(c1cncnc1)n1c(=S)[nH]c2ccc(Cl)cc2c1=O` (stereo not drawn), the MIC90 was ≥ 100 µM (H37Rv).
`Cc1ccc(OCCc2cc(F)cc(F)c2)c(C(=O)NCC2CC2)c1` gave an IC90 of 6.1 ± 1.6 µM (growth; H37Rv-LP; 120 h).
The MIC90 of `COCCC(c1cccnc1)n1c(=S)[nH]c2ccc(Cl)cc2c1=O` (stereo not drawn) is reported as > 100 µM (PptT conditional knockdown).
With `CN(C)C(=O)c1sc2ncccc2c1N` the IC50 was > 100 µM (growth inhibition; H37Rv LepB under-expressing).

Repeated from above:
`N#Cc1cc2c(=O)n(Cc3cccnc3)c(=S)[nH]c2cn1` has an MIC90 of 13.4 µM (PptT conditional knockdown).
With `CCC(C)(O)c1ccc(OCCc2cccc(F)c2)c(C(N)=O)c1` (stereo not drawn) the selectivity index was 2 (H37Rv-LP; baseline: HepG2 CC50 over Mtb IC90).
